{"data": "Published values of several laboratories", "Voltage-dependent P/Q-type calcium channel subunit alpha-1A": "Voltage-dependent P/Q-type calcium channel subunit alpha-1A (Homo sapiens, UniProt O00555)", "LATS2": "Serine/threonine-protein kinase LATS2 (LATS2, Homo sapiens, UniProt Q9NRM7)", "UCHL1": "Ubiquitin carboxyl-terminal hydrolase isozyme L1 (UCHL1, Homo sapiens, UniProt P09936)", "note": "Each line is one published result; not all experiments were run side by side. Several values in a cell are separate wells, animals, samples, runs or records. ± marks the error that the study gave."}
{"SMILES": "COc1cc(CN(C)CC2CCCN(CCc3ccccc3F)C2)cc(Cl)c1OC (centres unmarked)", "tested on": "Trypanosoma cruzi", "test": "reporter translation, Renilla luciferase mRNA translation", "system": "cell-free extract", "conditions": "40 µM", "scale": "relative to: DMSO", "quantity": "inhibition", "value": "5%"}
{"SMILES": "COc1ccc2c(c1)c(CC(=O)O)c(C)n2C(=O)c1ccc(Cl)cc1", "tested on": "Voltage-dependent P/Q-type calcium channel subunit alpha-1A", "test": "ion current, antagonist", "system": "HEK293", "conditions": "30 µM", "quantity": "inhibition", "value": "-6%"}
{"SMILES": "Cc1nn(-c2nc3c(F)cc(F)cc3s2)c(O)c1C(c1ccc(C(F)(F)F)cc1)c1c(C)nn(-c2nc3c(F)cc(F)cc3s2)c1O", "tested on": "Cyclic GMP-AMP synthase, catalytic domain; with DNA (CGAS, Homo sapiens, UniProt Q8N884)", "test": "cGAS phase separation, inhibitor", "conditions": "50 µM", "quantity": "inhibition", "value": "105%"}
{"SMILES": "CCN(c1cc(C#CCN2CCOCC2)cc(C(=O)NCc2c(C)cc(C)[nH]c2=O)c1C)[C@H]1CC[C@H](N(C)CCOC)CC1", "tested on": "EZH2 (Homo sapiens, UniProt Q15910)", "test": "enzyme activity, inhibitor", "conditions": "1 µM, with: nucleosome substrate", "quantity": "inhibition", "value": "93 ± 11%"}
{"SMILES": "Cc1ccc(C(=O)Nc2ccc3ccccc3c2)o1", "tested on": "Voltage-gated potassium channel KCNC4 (KCNC4, Homo sapiens, UniProt Q03721)", "test": "ion current, whole-cell patch-clamp", "conditions": "10 µM, hKv3.4", "quantity": "inhibition", "value": "0.982%"}
{"SMILES": "Cc1c(-c2ccccc2)oc2c(C(=O)OCCN3CCCCC3)cccc2c1=O", "tested on": "Anoctamin-1 (Ano1, Mus musculus, UniProt Q8BHY3)", "test": "ion current, inhibitor", "system": "HEK293 transfected", "conditions": "30 µM, at +80 mV", "quantity": "inhibition", "value": "~14% and 14.4%"}
{"SMILES": "Cc1ccc(Nc2nc(NCc3ccco3)c3ccccc3n2)cc1", "tested on": "Trypanosoma cruzi", "test": "reporter translation, Renilla luciferase mRNA translation", "system": "cell-free extract", "conditions": "40 µM", "scale": "relative to: DMSO", "quantity": "inhibition", "value": "18.9%"}
{"SMILES": "CC[C@@H]1[C@H](F)C(=O)N[C@@H]1COc1nccc2cc(C(N)=O)c(OC)cc12", "tested on": "PTK2B (Homo sapiens, UniProt Q14289)", "test": "ATP probe binding, KiNativ profiling, measured: activation loop probe site", "system": "THP-1 cell lysate", "conditions": "0.04 mM", "quantity": "inhibition", "value": "6.6%"}
{"SMILES": "Cc1cc(-c2ccnc3[nH]cc(F)c23)cc(F)c1[C@@]1(O)[C@H](C)CN(C2CCS(=O)(=O)CC2)C[C@@H]1C", "tested on": "LATS2", "test": "ATP probe binding, KiNativ, measured: Lys2 site", "system": "HEK293T cell lysate", "conditions": "1 µM", "quantity": "inhibition", "value": "84.8%"}
{"SMILES": "CC(C)NCC(O)COc1cccc2ccccc12 (centres unmarked)", "tested on": "Voltage-dependent P/Q-type calcium channel subunit alpha-1A", "test": "ion current, antagonist", "system": "HEK293", "conditions": "3 µM", "quantity": "inhibition", "value": "20%"}
{"SMILES": "CC1CCN(C(=O)CCl)c2cc(C(F)(F)F)ccc2S1 (centres unmarked)", "tested on": "UCHL1", "test": "covalent, intact protein LC-MS", "conditions": "12.5 µM", "quantity": "labelling", "value": "8.82%"}
{"SMILES": "CCS(=O)(=O)c1nc(S(=O)(=O)c2ccccc2Cl)c(N2CCN(C)C(=O)[C@H]2C)s1", "tested on": "CHRM5 (Homo sapiens, UniProt P08912)", "conditions": "10 µM", "quantity": "inhibition", "value": "4.73%"}
{"SMILES": "CN(C)CCC=C1c2ccccc2C=Cc2ccccc21", "tested on": "Voltage-dependent P/Q-type calcium channel subunit alpha-1A", "test": "ion current, antagonist", "system": "HEK293", "conditions": "3 µM", "quantity": "inhibition", "value": "28%"}
{"SMILES": "OCCCN1CC[C@@H]2C[C@H]1c1cc(-c3ccc(C(F)(F)F)cc3)ccc12", "tested on": "ADRA2C (Homo sapiens, UniProt P18825)", "test": "radioligand binding, PDSP competition binding", "conditions": "10 µM", "quantity": "inhibition", "value": "< 50%"}
{"SMILES": "Cc1cc(C)cc(COc2cc3c(cc2OCc2cc(C)cc(C)c2)[C@H]2C[C@](O)(Cc4cn(Cc5ccc(NC(=O)/C=C/CN(C)C)cc5)nn4)C[C@H](C)N2CC3)c1", "tested on": "Rab GDP dissociation inhibitor beta, with Rab1A (Homo sapiens, UniProt P50395)", "test": "GDI2-Rab1A interaction, NanoLuc complementation", "conditions": "6.25 µM", "quantity": "inhibition", "value": "93.2%"}
{"SMILES": "N#CC(=Cc1ccc([N+](=O)[O-])c(Cl)c1)C(=O)NCc1ccccc1", "tested on": "UCHL1", "test": "covalent, intact protein LC-MS", "conditions": "12.5 µM", "quantity": "labelling", "value": "44%"}
{"SMILES": "CN(C)CCOC1=Cc2ccccc2Sc2ccc(Cl)cc21", "tested on": "Voltage-dependent P/Q-type calcium channel subunit alpha-1A", "test": "ion current, antagonist", "system": "HEK293", "conditions": "30 µM", "quantity": "inhibition", "value": "98%"}
{"SMILES": "CN1CCN(c2cc(-c3ccncc3)c(-c3ccc4ccccc4c3)nn2)CC1", "tested on": "F2RL3 (Homo sapiens, UniProt Q96RI0)", "test": "antagonist, FLIPR", "conditions": "10 µM", "quantity": "inhibition", "value": "-9.3%"}
{"SMILES": "CNCCC(Oc1ccc(C(F)(F)F)cc1)c1ccccc1.Cl (centres unmarked)", "tested on": "Voltage-dependent P/Q-type calcium channel subunit alpha-1A", "test": "ion current, antagonist", "conditions": "30 µM", "quantity": "inhibition", "value": "45%"}
{"SMILES": "Cc1cc(-c2ccnc3[nH]cc(F)c23)cc(F)c1[C@@]1(O)[C@H](C)CN(C(=O)CN)C[C@@H]1C", "tested on": "LATS2", "test": "ATP probe binding, KiNativ, measured: Lys2 site", "system": "HEK293T cell lysate", "conditions": "1 µM", "quantity": "inhibition", "value": "88.5%"}
